Experimental data from different studies.
Lines come from different studies, so protocols differ. ± marks the error that the study gave.

With CCc1cc(C(=O)NC)c2nccc(N3CCc4c(cc(Cn5ccnc5)cc4-c4cn(C)nc4C(F)(F)F)C3=O)c2c1 the blood MCHC was 300 ± 4.86 g/L (Sprague Dawley rats; oral, 50 mg/kg once daily, 7 days).
For CC1(C)CC(NS(=O)(=O)c2cccc(Cl)c2O)c2ccc(F)cc2O1 (stereo not drawn), “DLS scattered light intensity” read 4.84e+06 counts/s (colloidal aggregate formation, dynamic light scattering; 50 mM potassium phosphate buffer; 200 µM, pH 7.0, 1% DMSO; higher = more aggregation).
C[C@H]1CN(C(=O)CC#N)[C@]12CCN(c1ncnc3[nH]ccc13)C2: “subjects withdrawn for AEs” 0% (healthy human; oral, 6 mg single).
For COc1cc(Nc2ncc3c(n2)-c2ccc(Cl)cc2C(c2c(F)cccc2OC)=NC3)ccc1C(=O)O, “patients with sore throat” read 13% (cancer patients; oral, dose not given, all grades any attribution, with: pembrolizumab).
C[C@H](CCC(=O)NCC(=O)O)[C@H]1CC[C@H]2[C@@H]3CC[C@@H]4C[C@H](O)CC[C@]4(C)[C@H]3C[C@H](O)[C@]12C: “daily mean concentration” 239 ± 52 nM (human, plasma; endogenous baseline diurnal).
For C[C@@H]1CN(c2c(F)c(N)c3c(=O)c(C(=O)O)cn(C4CC4)c3c2F)C[C@H](C)N1, the QTc interval was 334 ± 0.4 ms (male Hartley guinea pig, anaesthetized; intravenous, 10 mg/kg, baseline before infusion).
CNCc1ccc(-c2[nH]c3cc(F)cc4c3c2CCNC4=O)cc1 — result for “incidence of headache”: 0% (human patients; oral, 600 mg twice daily, grade 3).
For CNC(=O)c1ccc(-c2cnc3ncc(Cc4ccc5ncccc5c4)n3n2)cc1F, “vessel puncture site haematoma incidence” read 0% (healthy human subjects; oral, 200 mg, grade 3, all causality, with: itraconazole 200 mg/day).
O=C(Nc1nc2cccc(-c3ccc(CN4CCS(=O)(=O)CC4)cc3)n2n1)C1CC1 — result for “patients with triglycerides increased”: 0% (rheumatoid arthritis patients; oral, 300 mg once daily, 4 weeks, regardless of relatedness).
Under “TEAE elevated monocyte”, O=C(O)CCC(=O)O.[2H]C([2H])([2H])Oc1cc(C)c2[nH]ccc2c1CN1CC[C@@H](C2CC2)C[C@H]1c1ccc(C(=O)O)cc1 is recorded as 0% (healthy Chinese subjects; 200 mg once daily, multiple ascending dose).
With C=CCn1c(=O)c2cnc(Nc3ccc(N4CCN(C)CC4)cc3)nc2n1-c1cccc(C(C)(C)O)n1 the Tmax was 1.9 h (human, plasma; oral, 250 mg once daily, -5-day lead-in, monotherapy lead-in).
CC(C)[C@@H](CS(=O)(=O)C(C)C)N1C(=O)[C@@](C)(CC(=O)O)C[C@H](c2cccc(Cl)c2)[C@H]1c1ccc(Cl)cc1: “volume of distribution” 0.732 L/kg (FVB Abcb1a/b-/-Abcg2-/- mice, plasma; intravenous, 20 mg/kg).
Under “DLS scattered light intensity”, O=C(O)c1sccc1S(=O)(=O)NCCn1ccc2c(Br)cccc21 is recorded as 1.48e+06 counts/s (colloidal aggregate formation, dynamic light scattering; 50 mM potassium phosphate buffer; 200 µM, pH 7.0, 1% DMSO; higher = more aggregation).
CCc1c(-c2ccccc2)c(-c2ccccc2)nn1-c1ccccc1-c1cccc(OCC(=O)O)c1 gave a concentration of 185 ng/g (male Sprague-Dawley rat, testis; oral, 10 mg/kg, 8 h).
COc1ccc2c(c1)CN(C(=O)CCN1CCC(Cc3ccccc3)CC1)CC[S@@+]2[O-] has a QTcF of 421 ± 20.1 ms (healthy male volunteers; intravenous, 0.6 mg/kg, post-dose).
CCc1nc(C(N)=O)c(Nc2ccc(N3CCC(N4CCN(C)CC4)CC3)c(OC)c2)nc1NC1CCOCC1: “bench-top stability accuracy” 97.5% (mouse plasma; 425 ng/mL, 6 h, 25 °C).
The adverse events of CCC(C)n1ncn(-c2ccc(N3CCN(c4ccc(OCC5COC(Cn6cncn6)(c6ccc(Cl)cc6Cl)O5)cc4)CC3)cc2)c1=O (stereo not drawn) is reported as 0% (healthy human volunteers; oral, 200 mg, event Vomiting, continued dosing).
For Cc1ccc(Sc2ccccc2N2CCNCC2)c(C)c1, “participants with TEAE” read 16.7% (refers to: any TEAE; healthy adult men; oral, 10 mg daily, 12 days).
CNC(=O)c1ccc(-c2cnc3ncc(Cc4ccc5ncccc5c4)n3n2)cc1F: “patients with adverse event” 9% (refers to: Dyspnea, all grades; hepatocellular carcinoma patients; oral, 600 mg twice daily, expansion cohort, any causality).
CC(=O)Oc1ccccc1C(=O)O has a QTc interval of 362 ± 0.2 ms (male Hartley guinea pig, anaesthetized; intravenous infusion, 3 mg/kg, 10 min infusion, post-infusion).
Cc1cc(Nc2ccc(S(F)(F)(F)(F)F)cc2)n2nc(C(C)(F)F)nc2n1: “adverse event Fatigue” 0% (Plasmodium vivax malaria patients; oral, 800 mg).
For OC[C@H]1O[C@@H](c2ccc(Cl)c(Cc3ccc(O[C@H]4CCOC4)cc3)c2)[C@H](O)[C@@H](O)[C@@H]1O, “change in HDL cholesterol” read 5.75 mg/dL (Japanese type 1 diabetes patients, blood; 25 mg, day 28; relative to: baseline).
Under “urinary potassium excretion change”, Cc1ccc([C@@H]2O[C@H](CO)[C@@H](O)[C@H](O)[C@H]2O)cc1Cc1ccc(-c2ccc(F)cc2)s1 is recorded as -4.99 mEq (Japanese type 2 diabetes patients; 100 mg, day 18, 24 h urine collection; relative to: baseline).
Under “diastolic blood pressure change”, CC[C@H](C)[C@H](NC(=O)[C@H](Cc1ccccc1)NC(=O)[C@H](CCC(=O)O)NC(=O)[C@H](CCCCNC(=O)COCCOCCNC(=O)COCCOCCNC(=O)CC[C@H](NC(=O)CCCCCCCCCCCCCCCCC(=O)O)C(=O)O)NC(=O)[C@H](C)NC(=O)[C@H](C)NC(=O)[C@H](CCC(N)=O)NC(=O)CNC(=O)[C@H](CCC(=O)O)NC(=O)[C@H](CC(C)C)NC(=O)[C@H](Cc1ccc(O)cc1)NC(=O)[C@H](CO)NC(=O)[C@H](CO)NC(=O)[C@@H](NC(=O)[C@H](CC(=O)O)NC(=O)[C@H](CO)NC(=O)[C@@H](NC(=O)[C@H](Cc1ccccc1)NC(=O)[C@@H](NC(=O)CNC(=O)[C@H](CCC(=O)O)NC(=O)C(C)(C)NC(=O)[C@@H](N)Cc1cnc[nH]1)[C@@H](C)O)[C@@H](C)O)C(C)C)C(=O)N[C@@H](C)C(=O)N[C@@H](Cc1c[nH]c2ccccc12)C(=O)N[C@@H](CC(C)C)C(=O)N[C@H](C(=O)N[C@@H](CCCNC(=N)N)C(=O)NCC(=O)N[C@@H](CCCNC(=N)N)C(=O)NCC(=O)O)C(C)C is recorded as 1.7 mmHg (hypoglycaemic clamp; type 2 diabetes patients; dose not given, from glucose nadir to recovery).
C[C@H]1[C@H]2N(C(=O)CN(C)N2C(=O)NCc2ccccc2)[C@@H](Cc2ccc(OP(=O)(O)O)cc2)C(=O)N1Cc1cccc2cccnc12 gave an AUC(0-24 h) of 7260 ng·h/mL (patients, plasma; intravenous infusion, 280 mg/m2 over 4 h, median).
For O=c1[nH]c(=O)n([C@@H]2O[C@H](CO)[C@@H](O)[C@@H]2F)cc1CCC[18F], the blood concentration was 0.15 ± 0.08 %ID/g (nude mice, RG2 tumour, blood; intravenous, dose not given, 2 h, co-injection).
The QTc interval of C[C@H](CS)C(=O)N1CCC[C@H]1C(=O)O is reported as 339 ± 0.9 ms (male Hartley guinea pig, anaesthetized; intravenous, 10 mg/kg, baseline before infusion).
N#C[C@@]1(c2ccc3c(N)ncnn23)O[C@H](CO)[C@@H](O)[C@H]1O has an MRT(0-inf) of 4.19 h (beagle dog, male, plasma; oral, 6.5 mg/kg, capsule).
The Vz/F of C[C@@H](Oc1ccc(S(C)(=O)=O)cc1C(=O)N1C[C@@H]2C[C@]2(c2cc(C(F)(F)F)on2)C1)C(F)(F)F is reported as 329 L (LC-MS/MS; young human subjects, plasma; oral, 10 mg once daily, steady state, multiple doses).
COc1ccnc(C(=O)N[C@H]2COC(=O)[C@H](Cc3ccccc3)[C@@H](O)[C@H](C)OC2=O)c1O: “Freundlich coefficient KF” 23 mL/g (soil adsorption; soil; pH 6.9, organic carbon 0.8 %).
Under “subjects with adverse event”, CC(C)(C(=O)N1CCOc2c(C#N)cncc2C1)C(F)F is recorded as 12.5% (refers to: Cardiac disorders; human; oral, 20 mg once daily, 14 days, multiple ascending dose).
With COc1cc(N)c(Cl)cc1C(=O)NC1CCN(CCCOc2ccc(F)cc2)CC1OC (stereo not drawn) the QTc interval was 354 ± 0.5 ms (male Hartley guinea pig, anaesthetized; intravenous, 0.3 mg/kg, baseline before infusion).
With C=CC(=O)Nc1cc(Nc2nccc(-c3cn(C)c4ccccc34)n2)c(OC)cc1N(C)CCN(C)C the recovery was 94.5% (storage stability; human plasma; 72 h, -80 °C, medium QC level).
For O=C(CCCN1CCC(O)(c2ccc(Cl)cc2)CC1)c1ccc(F)cc1, the QTc interval was 346 ± 0.5 ms (male Hartley guinea pig, anaesthetized; intravenous, 1 mg/kg, baseline before infusion).
For CN(C)C(=N)N=C(N)N, “subjects with adverse event” read 4.5% (refers to: dizziness; healthy men; oral, dose not given, 8 days, treatment-emergent, crossover trial).
Cn1ncc(S(=O)(=O)NC2CCOc3c(Cl)cccc32)c1C(=O)O (stereo not drawn): “DLS scattered light intensity” 282000 counts/s (colloidal aggregate formation, dynamic light scattering; 50 mM potassium phosphate buffer; 200 µM, pH 7.0, 1% DMSO; higher = more aggregation).
For NC1(C(=O)N[C@@H](CCO)c2ccc(Cl)cc2)CCN(c2nc[nH]c3nccc2-3)CC1, “incidence of Nausea” read 40% (metastatic CRPC patients; 480 mg b.i.d., any grade, treatment-related, with: enzalutamide 160 mg daily).
The QTc interval of CC(C)NCC(O)COc1cccc2ccccc12 (stereo not drawn) is reported as 346 ± 0.7 ms (male Hartley guinea pig, anaesthetized; intravenous infusion, 0.3 mg/kg, 10 min infusion, post-infusion).
Cc1c(C[S+](C)[O-])cccc1NS(=O)(=O)c1cccc(Cl)c1O (stereo not drawn): “DLS scattered light intensity” 532000 counts/s (colloidal aggregate formation, dynamic light scattering; 50 mM potassium phosphate buffer; 200 µM, pH 7.0, 1% DMSO; higher = more aggregation).

For quick reference, copied from above:
C[C@H]1CN(C(=O)CC#N)[C@]12CCN(c1ncnc3[nH]ccc13)C2: “subjects withdrawn for AEs” 0% (healthy human; oral, 6 mg single).
CCc1nc(C(N)=O)c(Nc2ccc(N3CCC(N4CCN(C)CC4)CC3)c(OC)c2)nc1NC1CCOCC1: “bench-top stability accuracy” 97.5% (mouse plasma; 425 ng/mL, 6 h, 25 °C).
With C=CCn1c(=O)c2cnc(Nc3ccc(N4CCN(C)CC4)cc3)nc2n1-c1cccc(C(C)(C)O)n1 the Tmax was 1.9 h (human, plasma; oral, 250 mg once daily, -5-day lead-in, monotherapy lead-in).
The adverse events of CCC(C)n1ncn(-c2ccc(N3CCN(c4ccc(OCC5COC(Cn6cncn6)(c6ccc(Cl)cc6Cl)O5)cc4)CC3)cc2)c1=O (stereo not drawn) is reported as 0% (healthy human volunteers; oral, 200 mg, event Vomiting, continued dosing).
C[C@H](CCC(=O)NCC(=O)O)[C@H]1CC[C@H]2[C@@H]3CC[C@@H]4C[C@H](O)CC[C@]4(C)[C@H]3C[C@H](O)[C@]12C: “daily mean concentration” 239 ± 52 nM (human, plasma; endogenous baseline diurnal).
